Measured values gathered from unrelated publications.
Every numbered part comes from another study and shows a few of its results, in no order. Changes are numbered by the printed parent chain.

Study 1 — method: RNA Bind-n-Seq; molecule type: RNA; matrix: in vitro; tested at: 365 nM; reference: no-protein control; direction: higher = stronger binding
Target: RNA binding protein fox-1 homolog 2, RRM domain, GST-SBP tag (RBFOX2, Homo sapiens, UniProt O43251-10, residues 100-194)
Setting: natural RNA segment, single round, ends assumed
Constant ends, left off below: GGGAGUUCUACAGUCCGACGAUC … UGGAAUUCUCGGGUGCCAA
Residues (chain): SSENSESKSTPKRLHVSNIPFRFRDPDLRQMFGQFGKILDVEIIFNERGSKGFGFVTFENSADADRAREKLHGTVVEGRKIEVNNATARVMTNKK
`CUUGGUCCCCAGUGAGCUGAGGUGUGUACAAGGCCACCGAGUCACCUGCCCUCUCUCCGGAUCAUUUUUCUAGAGCAAGCAGGCCAGACUUCAUCCUGCCUUUGUCUUCG`: “RBNS enrichment (R)” 0.236.
Under “RBNS enrichment (R)”, `ACUAUAGGUUAUUCUCUUUCCUUUUCUAUGUUGUGUUUAUUCUAUUUAUUCUCUACAAUAUAUAAAAUGUAUUUGUUCUCUACAAUAAAUGUGUUUAUUCUCUACAAUAU` is recorded as 0.494.
`CAUUGGCUGUGCCCAAAUGAGUCCUCUUUGAAUAGAAAGUGAACCCAGGGCAAUGACAGCCAUUCUUGUCUUAGGGAUUAUGGAUCGGGGUAUGAAGUGUGCACACGCAG`: “RBNS enrichment (R)” 0.479.
`AGCUAUUUUAAAGAUGUUUUAAACAGUGGAAGAAUUAAGUCCACCAAAAGUCUUCCAUGAAAUGUAGCAGAGUUUCUGUCUGCCCUGCAUUACCUGCCAGCGAGUCAAGG` — result for “RBNS enrichment (R)”: 0.388.
`CCUUUCUGUAGGCUAUUUCCUCUUGCCCAGCAGUGGAUGGAGCGUCCUUGCUAAAAAGGGUUCCAUCUCCUUUAAGGACGUUUUAUUUUUGAUCCAGAGUCCUUGUUUCC`: “RBNS enrichment (R)” 0.404.
Under “RBNS enrichment (R)”, `UUACAUUUUGAGGAAAAAGAACAAAAAAGAAGGUUAUUGCAAAACUGAUGAUGCCCAUGAUACAAUUAGAAGUAUGUUAAAGAAGCGUGGGCAUUACAGAGAGCAGAAAG` is recorded as 2.84.
`AUUGCAUACCAGUGUAAAAAGACUCUGCCUCCCCCCUUUUUGGCUUUUUUACUGGGCUUGGCUGGCCUUGCAGUUUACCAGAUUCAUUUACAGACUCUCUGCUCUGUAUG` — result for “RBNS enrichment (R)”: 0.854.
For `AUCAACUAUCCCUCGUCGUGAUUGUUGAAAGCUCUUUCACUGUUUUGCAUUCUAGUUUGAAUAGUUUGUAUUGAAAUUGGAUUCCUAUCUUGUGUAUGUUUUUGGUGCGU`, “RBNS enrichment (R)” read 7.16.
`CUGUUGAGUAUGGAAUGUCCCAGUUUAAUAUAAAACAUACAGUUUAUUCCACACAGCAGUUUGACUUUGUAAAAGUUUAGCAAAAUAACUGAUUGUUUUGGAUAACUCAA`: “RBNS enrichment (R)” 0.428.
`GUUUUACUGGAUUCUCAGGGAGCCCUCUGUGGCCUUUUCCUUUAUUUUGAGUGCUGUUUCCUUUUUAGGAAAGAACAGCACUGUGGAAAUUUGCUUUUCCCCAUAGCAUG` — result for “RBNS enrichment (R)”: 1.39.
`CUUGUAAAUAUAUCCUAUCCGAAGUGUCAGCAGUUACGUUAGUUAAUACCGUGUUAUCUGCUGUAUUUUCCCUGUGUGUAUAAUGUAUCUCCUUUCAGAACAGGAAUGUG` — result for “RBNS enrichment (R)”: 0.221.
`CCCCCAGAUUGGCCCAGUGGCAUGCCAUUAGGUGAUUUUGCAUAGGGGCCAUAUCAUUCAUGGCCAAAAAAAACCAAAAAGCAAAAAACAAAAACAAGUCCCAUGUCCUA` — result for “RBNS enrichment (R)”: 0.296.

Study 2 — method: RNA Bind-n-Seq; molecule type: RNA; matrix: in vitro; tested at: not given; reference: input RNA pool; direction: higher = stronger binding
Target: RING finger protein unkempt homolog, zinc fingers 1-6, GST-SBP tag (UNK, Homo sapiens, UniProt Q9C0B0, residues 30-357)
UniProt Q9C0B0, sequence (30-357, looked up): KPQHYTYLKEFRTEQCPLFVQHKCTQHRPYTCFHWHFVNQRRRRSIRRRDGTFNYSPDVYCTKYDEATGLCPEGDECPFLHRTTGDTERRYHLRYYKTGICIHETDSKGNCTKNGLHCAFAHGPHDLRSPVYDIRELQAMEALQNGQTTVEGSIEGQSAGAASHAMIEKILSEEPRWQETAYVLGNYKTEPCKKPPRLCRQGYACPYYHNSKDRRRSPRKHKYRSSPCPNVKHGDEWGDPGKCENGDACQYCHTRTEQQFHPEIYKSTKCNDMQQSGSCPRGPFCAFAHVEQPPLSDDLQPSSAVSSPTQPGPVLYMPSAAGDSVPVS
Setting: RNA with constant flanks, human-mouse chimeric sites, ends assumed
Constant ends, left off below: GGGAGUUCUACAGUCCGACGAUC … CAACAGAGGAUUGAGCAUCA
For `UUCAAAGAAAAGGGCAGCUGUGUCAUUUCAUAAGUAACUCUGGGGGAUAAGUGGAAGGUUCUUUUGUUUAAUUUUCCCCCAAAUGAAGCCAAAGUGUGUGUUGAAGAAGGAAGAAUGAAU`, the bound/input enrichment was 0.187 ratio.
`AAAGUGGACUAUGGCGAGUACAUGGAUAAAAACAAUGUGAGGCGGCAAGCAACAACAAUCAUAGCUGAUAACAUUAUAUUUCUGAGUGACCAGACAAAAGAGAAGGAAUAGAACGGAUGA` has a bound/input enrichment of 3 ratio.
`GCUGAAAAUGAAGAAGAGGCAGCUGAUGUCUGGUACAACUUGGGACACAUAGCUGUGGGAAUCGGAGAUACAAAUUUGGCCCACCAAUGCUUCAGGCUGGCCCUGGUCCACAACAACCAC` gave a bound/input enrichment of 0.166 ratio.
For `GAUCCACAGUGGUCUGAGGAGCAACUCAUUGCUGCAAAAUUCUGUUUUGCUGGACUUCUUAUAGGCCAGACUGAAGUGGACAUCAUGAGUCAUGCCACACAAGCUAUUUUUGAAAUUCUG`, the bound/input enrichment was 0.201 ratio.
With `CGGAAGUUCUUGAUUUAUCAUUUUUCUCUUUUCUUUCUUUCCUUUAGGAAAAGCCUAAAGAUUAGGUUGUAAGAAAAACAGAAGCCAUGUUUCGAAGGAAGACCUGUCAGGUAUUUCGUC` the bound/input enrichment was 0.135 ratio.
`GCUGAAAAUGAAGAAGAGGCAGCUGAUGUCUGGUACAACUUGGGACACAUAGCUGUGGGAAUAGGAGAUACAAACUUGGCCCACCAAUGCUUCAGGCUGGCCCUGGUCCACAACAACCAC` has a bound/input enrichment of 0.274 ratio.

Study 3 — Substance: HNRNPC (Homo sapiens, UniProt P07910); method: cross-linking MS; setting: hits only
RBMX (Homo sapiens, UniProt P38159) — interaction screen: “cross-linked”.
It gave “cross-linked” for interaction screen (DDX50 (Homo sapiens, UniProt Q9BQ39)).
For DDX17 (Homo sapiens, UniProt Q92841): interaction screen read “cross-linked”.
The interaction screen was “cross-linked” (DDX5 (Homo sapiens, UniProt P17844)).
It gave “cross-linked” for interaction screen (HNRNPA3 (Homo sapiens, UniProt P51991)).

Study 4 — target: UBE2Q1 UBC core domain (UniProt Q7Z7E8); method: yeast two-hybrid; matrix: yeast; setting: mostly zero background; reference: not given; direction: higher = stronger interaction
B1: RNF103 RING domain (UniProt O00237); chain WPADMLHCTECVVCLENFENGCLLMGLPCGHVFHQNCIVMWLAGGRHCCPVCRWPSYKKKQPY
B2: BFAR RING domain (UniProt Q9NZS9); chain GPQISVSEFSCHCCYDILVNPTTLNCGHSFCRHCLALWWASSKKTECPECREKWEGFPKVS
B3: MKRN3 RING domain (UniProt Q13064); chain FAVQRGMDKVCGICMEVVYEKANPNDRRFGILSNCNHSFCIRCIRRWRSARQFENRIVKSCPQCRVTSELVIPSE
B4: ZMYND11 RING domain (UniProt Q15326); chain DEIDWETENHDWYCFECHLPGEVLICDLCFRVYHSKCLSDEFRLRDSSSPWQCPVCRSIKKKNTNKQEM
B5: RUFY1 RING domain (UniProt Q96T51); chain QALKGHAWLKDDEATHCRQCEKEFSISRRKHHCRNCGHIFCNTCSSNELALPSYPKPVRVCDSCHTLLLQRCSSTAS
B6: HLTF RING domain (UniProt Q14527); chain LILSSGSDEECAICLDSLTVPVITHCAHVFCKPCICQVIQNEQPHAKCPLCRNDIHEDNLLE
Target sequence (chain): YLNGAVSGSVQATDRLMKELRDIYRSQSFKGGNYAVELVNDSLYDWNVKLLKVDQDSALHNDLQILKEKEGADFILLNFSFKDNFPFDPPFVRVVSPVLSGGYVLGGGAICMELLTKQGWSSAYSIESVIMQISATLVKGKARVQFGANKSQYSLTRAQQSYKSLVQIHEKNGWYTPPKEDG
`B1 (RNF103 RING domain)`: “lacZ reporter activity” 0.
`B2 (BFAR RING domain)` — result for “lacZ reporter activity”: 0.
`ASEEEFQFLRCQQCQAEAKCPKLLPCLHTLCSGCLEASGMQCPICQAPWPLGADTP (PML RING domain (UniProt P29590))` — result for “lacZ reporter activity”: 0.
For `FDPPLESKYECPICLMALREAVQTPCGHRFCKACIIKSIRDAGHKCPVDNEILLENQLFP (TRAF6 RING domain (UniProt Q9Y4K3))`, “lacZ reporter activity” read 0.
`B3 (MKRN3 RING domain)`: “lacZ reporter activity” 0.
`B4 (ZMYND11 RING domain)` — result for “lacZ reporter activity”: 0.
`B5 (RUFY1 RING domain)` — result for “lacZ reporter activity”: 0.
Under “lacZ reporter activity”, `LEALSSDFLACKICLEQLRAPKTLPCLHTYCQDCLAQLADGGRVRCPECRETVPVPPEGV (TRIM56 RING domain (UniProt Q9BRZ2))` is recorded as 0.
Under “lacZ reporter activity”, `B6 (HLTF RING domain)` is recorded as 0.

Study 5 — target: CEBPA, bZIP domain (human); method: DHFR protein complementation; matrix: yeast; reference: wild-type JUN-FOS pair; direction: higher = stronger binding
Setting: single substitutions, most at no-binding floor
Parent: JUN, bZIP domain (human); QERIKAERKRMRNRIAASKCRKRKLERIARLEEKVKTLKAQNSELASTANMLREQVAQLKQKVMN; partner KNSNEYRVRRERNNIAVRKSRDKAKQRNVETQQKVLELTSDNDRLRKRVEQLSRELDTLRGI
`K36L` gave a binding fitness of -1.35 natural log.
With `Q58R` the binding fitness was -1.56 natural log.
`L45I` gave a binding fitness of -1.46 natural log.
The binding fitness of `S47I` is reported as -1.46 natural log.
For `N42W`, the binding fitness was -1.51 natural log.
`L38H` has a binding fitness of -1.58 natural log.
`R53G` gave a binding fitness of -1.34 natural log.
The binding fitness of `K36G` is reported as -1.44 natural log.
The binding fitness of `E44C` is reported as -1.48 natural log.
`A46S` gave a binding fitness of -1.32 natural log.
With `E44Y` the binding fitness was -1.54 natural log.
For `K34P`, the binding fitness was -1.51 natural log.
For `A57L`, the binding fitness was -1.49 natural log.
For `L38N`, the binding fitness was -1.42 natural log.
For `N42D`, the binding fitness was -1.49 natural log.

Study 6 — target: CCNF, cyclin fold, Cln2 fusion (human); method: yeast growth competition, sequencing; matrix: yeast; setting: weak parent motif; reference: not given; direction: higher = stronger binding
Parent: MASTL docking peptide (human); PMIAKNLMCELDE
`PMIAKNLMCELPE [D12P]`: “normalised enrichment score” -0.397.
`PMIAKNLTCELDE [M8T]`: “normalised enrichment score” -0.15.
Under “normalised enrichment score”, `PMIEKNLMCELDE [A4E]` is recorded as -0.27.
`PMIAKNLMLELDE [C9L]` — result for “normalised enrichment score”: 0.659.
`PMIPKNLMCELDE [A4P]` — result for “normalised enrichment score”: 0.171.
`PMIAANLMCELDE [K5A]`: “normalised enrichment score” -0.433.
Under “normalised enrichment score”, `PMIAKNLHCELDE [M8H]` is recorded as -0.311.
`PMIAKNLWCELDE [M8W]`: “normalised enrichment score” 0.144.
Under “normalised enrichment score”, `PMIAKNLMCWLDE [E10W]` is recorded as 0.213.
Under “normalised enrichment score”, `PMPAKNLMCELDE [I3P]` is recorded as -0.3.
`PMINKNLMCELDE [A4N]`: “normalised enrichment score” 0.177.
Under “normalised enrichment score”, `PMIAKNLVCELDE [M8V]` is recorded as -0.11.
For `PMTAKNLMCELDE [I3T]`, “normalised enrichment score” read 0.0229.
`PKIAKNLMCELDE [M2K]` — result for “normalised enrichment score”: 0.352.
`PMIAKNLSCELDE [M8S]`: “normalised enrichment score” -0.33.
Under “normalised enrichment score”, `PMIAKNAMCELDE [L7A]` is recorded as -0.207.
`PMIAKHLMCELDE [N6H]` — result for “normalised enrichment score”: 0.138.
`PMIAKNRMCELDE [L7R]`: “normalised enrichment score” -0.0676.
Under “normalised enrichment score”, `PMIAKNLMCECDE [L11C]` is recorded as -0.421.
`PMIAKNLMCEPDE [L11P]` — result for “normalised enrichment score”: -0.00158.
`PMIAKNLMCALDE [E10A]`: “normalised enrichment score” 0.292.
`PMYAKNLMCELDE [I3Y]`: “normalised enrichment score” -0.0228.
Under “normalised enrichment score”, `PMRAKNLMCELDE [I3R]` is recorded as -0.179.
Under “normalised enrichment score”, `PAIAKNLMCELDE [M2A]` is recorded as 0.173.
`PMIAKWLMCELDE [N6W]`: “normalised enrichment score” 0.456.
